Assay results collected from several papers.
Lines come from different studies, so protocols differ. Several values in a cell are separate wells, animals, samples, runs or records. ± gives the spread as reported.

`CO[C@H]1C[C@@H]2CC[C@@H](C)[C@@](O)(O2)C(=O)C(=O)N2CCCC[C@H]2C(=O)O[C@H]([C@H](C)C[C@@H]2CC[C@@H](OC(=O)NCCOCCOCCOCCOCCOCCOCCOCCOCCC(=O)N3CCc4cc(Cn5nc(-c6ccc7oc(N)nc7c6)c6c(N)ncnc65)ccc4C3)[C@H](OC)C2)C[C@@H](O)[C@H](C)/C=C(\C)[C@@H](O)[C@@H](OC)C(=O)[C@H](C)C[C@H](C)/C=C/C=C/C=C/1C`: “incidence of nausea TEAE” 6.3% (patients with advanced solid tumours; intravenous, 8 mg weekly, grade ≥3).
For `Clc1cc2c(cc1Cl)Oc1c(ccc(Cl)c1Cl)O2`, “milk fat partition ratio” read 351 (cow whole milk; 200 nM; baseline: milk fat over skim milk).
`O=C(O)CCCOc1ccc(F)cc1-c1cc(-c2ccccc2C(F)(F)F)n(-c2ccccc2)n1` — result for “serum protein fraction”: 8.4 ± 0.8% (measured: α2-glb; Crl:CD(SD) rats, female, serum; iv, 25 µg/kg, 14 days).
With `CC/C(=C(\c1ccccc1)c1ccc(OCCN(C)C)cc1)c1ccccc1` the half-life was 11.2 h (CD-1 mouse, male, plasma; intraperitoneal, 10 mg/kg).
With `CC(=O)c1c(C)c2cnc(Nc3ccc(C4CCN(CCS(C)(=O)=O)CC4)cn3)nc2n(C2CCCC2)c1=O` the Vd was 745 L (human, plasma; oral, 100 mg, day 1 single dose).
For `CCCC[C@@H]1NC(=O)[C@H](Cc2ccc(O)cc2)NC(=O)[C@@H]2CCCN2C(=O)[C@H](CC(=O)O)NC(=O)[C@H](C)NC(=O)[C@H](Cc2ccccc2)NC(=O)[C@@H]2CSCCC(=O)N3CN(CN(C3)C(=O)CCSC[C@@H](C(=O)N[C@@H](C)C(N)=O)NC1=O)C(=O)CCSC[C@H](NC(=O)[C@H](C)NC(C)=O)C(=O)N[C@@H]([C@@H](C)CC)C(=O)N[C@@H](CCC(=O)O)C(=O)N[C@@H](CCC(=O)O)C(=O)N[C@H](CCCCNC(=O)CCc1cn(CCOCCOCCOCCN(CCOCCOCCOCCC(=O)N[C@H]3CSCCC(=O)N4CN5CN(C4)C(=O)CCSC[C@H](NC(=O)[C@@H](CC(=O)O)NC(=O)[C@H](Cc4cccc6ccccc46)NC(=O)[C@@H]4CCCN4C3=O)C(=O)N[C@@H](CCSC)C(=O)N[C@@H](CCCCNC(=N)N)C(=O)N[C@@H](CC(=O)O)C(=O)N[C@@H](Cc3c[nH]c4ccccc34)C(=O)N[C@@H](CO)C(=O)N[C@@H]([C@@H](C)O)C(=O)N3CCC[C@H]3C(=O)N3C[C@H](O)C[C@H]3C(=O)N[C@@H](Cc3c[nH]c4ccccc34)C(=O)N[C@H](C(N)=O)CSCCC5=O)CCOCCOCCOCCn3cc(CCC(=O)NCCCC[C@H]4NC(=O)[C@H](CCC(=O)O)NC(=O)[C@H](CCC(=O)O)NC(=O)[C@H]([C@@H](C)CC)NC(=O)[C@@H](NC(=O)[C@H](C)NC(C)=O)CSCCC(=O)N5CN6CN(C5)C(=O)CCSC[C@H](NC(=O)[C@H](Cc5ccc(O)cc5)NC(=O)[C@H](CCC(N)=O)NC4=O)C(=O)N[C@@H](Cc4ccccc4)C(=O)N[C@@H](C)C(=O)N[C@@H](CC(=O)O)C(=O)N4CCC[C@H]4C(=O)N[C@@H](Cc4ccc(O)cc4)C(=O)N[C@@H](CCCC)C(=O)N[C@H](C(=O)N[C@@H](C)C(N)=O)CSCCC6=O)nn3)nn1)C(=O)N[C@@H](CCC(N)=O)C(=O)N[C@@H](Cc1ccc(O)cc1)C(=O)N2`, the unbound clearance was 49 mL/min/kg (Sprague-Dawley rat).
The alkaline phosphatase of `COc1cccc(Oc2ccccc2NC(=O)CNC(=O)c2cccc3ccccc23)c1` is reported as 93 U/L and 104 U/L and 92 U/L (esterase-deficient SCID mice, male; oral, 40 mg/kg/day, 14 days, toxicity study).
Under “mean plasma concentration”, `C1=Cc2nc1cc1ccc([n-]1)c(-c1ccccc1)c1nc(cc3ccc([n-]3)c2-c2ccccc2)C=C1.CC(=O)[O-].[Mn+3]` is recorded as 118 ng/mL (LC-MS/MS; Sprague-Dawley rat, plasma; oral gavage, dose not given, 360 min).
Under “patients with adverse event”, `CN1CC[C@@H](c2c(O)cc(O)c3c(=O)cc(-c4ccc(C(F)(F)F)cc4Cl)oc23)[C@@H]1CO` is recorded as 0% (measured: Sepsis; relapsed B-cell malignancies; oral, 100 mg, grade 3-4, intermittent dosing).
`Cn1ncc(-c2nc(N[C@H]3CC[C@H](N)CC3)ncc2Cl)c1CC1CC1`: “peripheral oedema incidence” 8% (phase I dose escalation; human patients; any-grade TEAE; baseline: patients).
`C[C@]1(O)C[C@@](N)(c2ccc(-c3nc4n(c3-c3ccccc3)COc3ccncc3-4)cc2)C1` — result for “patients with Pruritus TEAE”: 66.7% (human, advanced or metastatic solid tumours; 28 mg intermittent, phase I dose escalation).
Under “enzyme contribution to clearance”, `CC1(C)[C@H](C=C(Cl)Cl)[C@H]1C(=O)OCc1cccc(Oc2ccccc2)c1` is recorded as 0.02% (measured: CYP1A2; human, age 6 months, recombinant human CYP1A2; 0.1 µM).
Under “subjects with drug-related fatigue”, `C[C@]1(CO)Cc2ncn(-c3ccc(C#N)c(Cl)c3)c2C(=O)O1` is recorded as 11.1% (human; 80 mg multiple doses, fasted).
Under “bone pain incidence”, `COc1cc2c(Oc3ccc4[nH]c(C)cc4c3F)ccnc2cc1OCC1(N)CC1` is recorded as 25% (paediatric recurrent refractory sarcoma; 10 mg).

For quick reference, copied from above:
`O=C(O)CCCOc1ccc(F)cc1-c1cc(-c2ccccc2C(F)(F)F)n(-c2ccccc2)n1` — result for “serum protein fraction”: 8.4 ± 0.8% (measured: α2-glb; Crl:CD(SD) rats, female, serum; iv, 25 µg/kg, 14 days).
